Results of several laboratories.
Protocols differ between the studies behind these lines.
Sample: plasma
Route: oral

Cn1cc(-c2ccc(S(=O)(=O)[C@@H]3C[C@@H](C(=O)NC4(C#N)CC4)N(C(=O)C4(C(F)(F)F)CC4)C3)c(C(F)(F)F)c2)cn1  half-life (human; 10 mg, single dose, fasted, healthy volunteers): ~8 h
Nc1cc(F)ccc1NC(=O)c1ccc(CNC(=O)/C=C/c2cccnc2)cc1  half-life (human; 30 mg, patients): 17.1 h
COc1cc(N2CCC(N3CCN(C)CC3)CC2)ccc1Nc1ncc(Cl)c(Nc2ccccc2P(C)(C)=O)n1  half-life (human; 180 mg, single dose, healthy volunteers): 25.1 h
C#C[C@]1(CO)O[C@@H](n2cnc3c(N)nc(F)nc32)C[C@@H]1O  half-life (human; 30 mg, single dose, fed): 63.6 h
CNC(=O)c1ccccc1Sc1ccc2c(/C=C/c3ccccn3)n[nH]c2c1  half-life (human; 10 mg, single dose, fed): 5.9 h
C[C@H](N)C(=O)N1C[C@H](CCCB(O)O)[C@](N)(C(=O)O)C1  half-life (human; 100 mg, single dose, patients): 5.7 h
C[C@@H]1CCC[C@H](n2cnc(-c3cc(Cl)ccc3-n3cc(Cl)nn3)cc2=O)c2cc(ccn2)-c2c(cnn2C(F)F)NC1=O  half-life (human; 200 mg, single dose, fasted, healthy volunteers): 10.5 h
CCCOc1ccc([C@H]2CNC(=O)N2c2ccc3[nH]cnc3c2)cc1  half-life (human; 800 mg, fasted, healthy volunteers): 2.28 h
Nc1ccc(-c2nc([C@H]3CCc4cc(-c5cc(Cl)ccc5-n5cnnn5)cc(=O)n43)c(F)[nH]2)c(F)n1  half-life (human; 1 mg, single dose, fasted): 16.5 h
O=C(O)COC[C@H]1CC[C@H](COC(=O)N(c2ccccc2)c2ccc(Cl)cc2)CC1  half-life (human; 30 µg, single dose, healthy volunteers): 20.5 h
COc1cccc(-c2ccc(NC(=O)C3=C(C(=O)O)CCC3)c(F)c2)c1  half-life (male human; 30 mg, single dose, fasted, healthy volunteers): ~40 h
Cc1ccsc1C(=O)Nc1cc(CN2CCN(C(=O)CO)CC2)ccc1/C=C/c1n[nH]c2ccccc12  half-life (human; 50 mg/day, patients): 11 h
O=C(c1nc2n(n1)[C@H](c1ccccc1)C[C@@H]2F)C1CC1  half-life (human; 25 mg, single dose, fasted, healthy volunteers): 10.4 h
CNc1nc(Nc2ccc(-n3cnc(C)n3)c(OC)c2)nc2c1CC[C@H]2c1ccc(F)cc1  half-life (human; 100 mg, single dose, healthy volunteers): 23 h
CS(=O)(=O)n1cc2c(n1)CN([C@H]1CO[C@H](c3cc(F)ccc3F)[C@@H](N)C1)C2  half-life (male human; 50 mg, single dose, fasted, healthy volunteers): 33.4 h
C=CC(=O)Nc1cc(Nc2ncc(C(=O)OC(C)C)c(-c3cn(C)c4ccccc34)n2)c(OC)cc1N(C)CCN(C)C  half-life (human; 160 mg, single dose, fasted, healthy volunteers): 19.9 h

For quick reference, copied from above:
CNc1nc(Nc2ccc(-n3cnc(C)n3)c(OC)c2)nc2c1CC[C@H]2c1ccc(F)cc1  half-life (human; 100 mg, single dose, healthy volunteers): 23 h
CS(=O)(=O)n1cc2c(n1)CN([C@H]1CO[C@H](c3cc(F)ccc3F)[C@@H](N)C1)C2  half-life (male human; 50 mg, single dose, fasted, healthy volunteers): 33.4 h
